{"data": "Assay results pooled from the literature", "ABL1 Q252H phosphorylated": "Tyrosine-protein kinase ABL1, phosphorylated (ABL1, Homo sapiens, UniProt P00519, Q252H)", "note": "Each line is one published result; not all experiments were run side by side."}
{"SMILES": "COc1cc(Nc2nccc(-c3cnn4nc(OC)ccc34)n2)cc(C(F)(F)F)c1", "target": "Tyrosine-protein kinase ABL1, phosphorylated (ABL1, Homo sapiens, UniProt P00519)", "assay": "binding, competition with immobilised ligand", "conditions": "1 µM", "remaining binding": "95%"}
{"SMILES": "CNC(=O)C1CCN(c2cc(C)c(F)cc2NC(=O)c2ccc(-c3cc(O)ccc3C)c(C)c2)CC1", "target": "ABL1 Q252H phosphorylated", "assay": "binding, competition with immobilised ligand", "conditions": "1 µM", "remaining binding": "30%"}
{"SMILES": "CCN1CCN(Cc2ccc(C(=O)Nc3ccc(C)c(NCc4cnc5[nH]ccc5c4OC)c3)cc2C(F)(F)F)CC1", "target": "Tyrosine-protein kinase ABL1, non-phosphorylated (ABL1, Homo sapiens, UniProt P00519)", "assay": "binding, competition with immobilised ligand", "conditions": "1 µM", "remaining binding": "2.8%"}
{"SMILES": "Nc1ncc2c(n1)-c1c([nH]c3ccc(C4=CCOCC4)cc13)CCC2", "target": "Tyrosine-protein kinase ABL1, phosphorylated (ABL1, Homo sapiens, UniProt P00519, T315I)", "assay": "binding, competition with immobilised ligand", "conditions": "1 µM", "remaining binding": "100%"}
{"SMILES": "CC(C)=CC1OC(C)(C)C2C=C3C(=O)C(Cl)=CC(O)C3C3C(O)C4OC4C(=O)C132 (centres unmarked)", "target": "ABL1 Q252H phosphorylated", "assay": "cell-free assay, competition with immobilised ligand", "conditions": "10 µM", "remaining binding": "92%"}
{"SMILES": "C=CC(=O)N1CCCC(n2c(=O)c3ncccc3n(Cc3ccc(Oc4ccccc4)cc3)c2=O)C1 (centres unmarked)", "target": "Tyrosine-protein kinase ABL1, non-phosphorylated (ABL1, Homo sapiens, UniProt P00519, F317L)", "assay": "binding, competition with immobilised ligand", "conditions": "1 µM", "remaining binding": "74%"}
{"SMILES": "Cc1cnc2nc1Nc1cccc(c1)COC/C=C/COCc1cc(ccc1OCCN1CCOCC1)N2", "target": "ABL1 (Homo sapiens, UniProt P00519, Q252H)", "assay": "binding", "conditions": "0.1 µM", "remaining binding": "50%"}
{"SMILES": "C=CC(=O)N1CCc2ccc(-n3c(=O)ccc4cnc5ccc(-c6cnn(C)c6)cc5c43)cc21", "target": "Tyrosine-protein kinase ABL1, phosphorylated (ABL1, Homo sapiens, UniProt P00519, Y253F)", "assay": "KINOMEscan, item: (Y253F)-phosphorylated", "conditions": "1 µM", "scale": "baseline: control", "remaining binding": "100%"}
{"note": "A few entries again:"}
{"SMILES": "C=CC(=O)N1CCCC(n2c(=O)c3ncccc3n(Cc3ccc(Oc4ccccc4)cc3)c2=O)C1 (centres unmarked)", "target": "Tyrosine-protein kinase ABL1, non-phosphorylated (ABL1, Homo sapiens, UniProt P00519, F317L)", "assay": "binding, competition with immobilised ligand", "conditions": "1 µM", "remaining binding": "74%"}
